Measurements collected from several papers.
Each numbered part is a random draw from the data of one study; scales do not carry over between parts.

Study 1 — effect on: enzyme activity; mode: inhibitor; tested at: 0.5 µM; relative to: control; quantity: remaining activity
Target: Protein kinase C iota type (PRKCI, Homo sapiens, UniProt P41743)
Construct (P41743 1-596): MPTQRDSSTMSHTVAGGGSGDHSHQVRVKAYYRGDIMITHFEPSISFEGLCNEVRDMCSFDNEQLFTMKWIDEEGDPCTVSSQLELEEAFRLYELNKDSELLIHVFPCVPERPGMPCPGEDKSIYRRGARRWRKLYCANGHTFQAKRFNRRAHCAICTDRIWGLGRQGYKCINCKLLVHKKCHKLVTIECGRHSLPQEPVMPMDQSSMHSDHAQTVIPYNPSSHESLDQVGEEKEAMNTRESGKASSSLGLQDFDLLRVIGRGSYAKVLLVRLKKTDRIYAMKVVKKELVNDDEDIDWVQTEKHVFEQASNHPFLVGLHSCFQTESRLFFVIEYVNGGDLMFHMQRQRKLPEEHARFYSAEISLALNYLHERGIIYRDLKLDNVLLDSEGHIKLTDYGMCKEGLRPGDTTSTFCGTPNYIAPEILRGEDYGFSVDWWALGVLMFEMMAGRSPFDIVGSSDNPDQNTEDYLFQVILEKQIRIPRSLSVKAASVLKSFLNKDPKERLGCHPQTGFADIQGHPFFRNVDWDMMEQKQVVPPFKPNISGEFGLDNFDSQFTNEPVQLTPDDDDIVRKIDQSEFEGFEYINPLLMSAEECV
Structure (SMILES) = Cc1nc(-c2ccccc2)c(-c2ccncc2)o1; value = 101%
Structure (SMILES) = Nc1ccc2ncnc(NCCc3ccc(Oc4ccccc4)cc3)c2c1; value = 103%
Structure (SMILES) = CO[C@H]1C[C@@H]2CC[C@@H](C)[C@@](O)(O2)C(=O)C(=O)N2CCCC[C@H]2C(=O)O[C@H]([C@H](C)C[C@@H]2CC[C@@H](O)[C@H](OC)C2)CC(=O)[C@H](C)/C=C(\C)[C@@H](O)[C@@H](OC)C(=O)[C@H](C)C[C@H](C)/C=C/C=C/C=C/1C; value = 99.1%
Structure (SMILES) = NCCNc1ncc(C(N)=O)c(Nc2cccc(C(F)(F)F)c2)n1; value = 98.7%
Structure (SMILES) = Cc1ccc(NC(=O)c2ccc(CN3CCN(C)CC3)cc2)cc1Nc1nc(-c2cccnc2)cs1; value = 93.7%
Structure (SMILES) = Cn1c2ccccc2c2c3c(c4c5ccccc5n(CCC#N)c4c21)CNC3=O; value = 91.6%
Structure (SMILES) = Cn1sc(=O)n(Cc2ccccc2)c1=O; value = 95.2%
Structure (SMILES) = O=C1NC(=O)C(c2cn(CCCO)c3ncccc23)=C1c1cnccn1; value = 87%
Structure (SMILES) = O=C(CCCc1ccc(-c2ccccc2F)cc1)Nc1ccc(O)cc1; value = 95.5%
Structure (SMILES) = O=S(=O)(c1cccc2cnccc12)N1CCCNCC1; value = 87.2%
Structure (SMILES) = Cc1cccc(-c2[nH]c(C(C)(C)C)nc2-c2ccc3c(c2)OCO3)n1; value = 92.8%
Structure (SMILES) = COc1cc2ncnc(Nc3ccc(Oc4ccccc4)cc3)c2cc1OC; value = 108%
Structure (SMILES) = CNC(=O)c1cc(Oc2ccc(NC(=O)Nc3ccc(Cl)c(C(F)(F)F)c3)cc2)ccn1; value = 89.9%
Structure (SMILES) = O=C(O)c1ccc2c3c1cccc3c(=O)n1c3ccccc3nc21; value = 94.6%
Structure (SMILES) = COc1ccc(CNC(=O)Nc2ncc([N+](=O)[O-])s2)cc1; value = 94.4%

Study 2 — cell line: HaCaT; tested at: 100 µM; time: 36 h; quantity: viability
Compound = CCCCCCOC(=O)NC(=N)c1ccc(NCc2nc3cc(C(=O)N(CCC(=O)OCC)c4ccccn4)ccc3n2C)cc1; value = 7.58%
Compound = CC(=O)Nc1ccc(CC(=O)O)cc1; value = 88.7%
Compound = CCOc1ccc(Cc2cc([C@@H]3O[C@H](CO)[C@@H](O)[C@H](O)[C@H]3O)ccc2Cl)cc1; value = 96.4%
Compound = COC1=CC(=O)C[C@@H](C)[C@]12Oc1c(Cl)c(OC)cc(OC)c1C2=O; value = 51.9%
Compound = S=C1SCN(Cc2ccccc2)CN1Cc1ccccc1; value = 6.02%

Study 3 — effect on: target engagement; technique: BRET; quantity: IC50
Structure (SMILES): Cn1cnc(Cn2ccc3ccc(CNCc4[nH]c5ccccc5c4[C@H]4NC(=O)c5ccc(O)cc54)cc32)c1
KRAS G12C: GTPase KRas (KRAS, Homo sapiens, UniProt P01116, G12C)
target = KRAS G12C; test system = HEK293; conditions = 4 h; value = 730 nM
target = GTPase KRas (KRAS, Homo sapiens, UniProt P01116); test system = HEK293 cells; value = 760 nM
target = KRAS G12C; test system = HEK293; conditions = 1 h; value = 870 nM

Study 4 — effect on: ligand displacement; tested at: 10 µM; quantity: inhibition
Target: 5-hydroxytryptamine receptor 7 (HTR7, Homo sapiens, UniProt P34969)
Sequence of UniProt P34969 (whole entry, looked up): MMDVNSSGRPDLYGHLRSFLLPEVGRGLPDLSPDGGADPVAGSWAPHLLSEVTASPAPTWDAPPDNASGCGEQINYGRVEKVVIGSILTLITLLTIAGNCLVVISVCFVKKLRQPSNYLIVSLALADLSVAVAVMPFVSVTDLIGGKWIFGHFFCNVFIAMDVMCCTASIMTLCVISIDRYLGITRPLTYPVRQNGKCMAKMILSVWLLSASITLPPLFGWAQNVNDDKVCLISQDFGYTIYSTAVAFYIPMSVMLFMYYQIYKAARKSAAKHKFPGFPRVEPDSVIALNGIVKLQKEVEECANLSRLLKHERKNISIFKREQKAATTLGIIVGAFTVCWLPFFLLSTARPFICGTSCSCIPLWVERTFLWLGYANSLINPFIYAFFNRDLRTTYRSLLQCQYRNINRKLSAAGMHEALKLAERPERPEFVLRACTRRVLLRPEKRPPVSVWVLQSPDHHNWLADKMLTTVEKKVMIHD
SMILES = CNC(=O)Nc1ccc2c(c1)CC[C@]21OC(=O)N(CC(=O)N(Cc2ccc(F)cc2)[C@@H](C)C(F)(F)F)C1=O; value = 7.83%
SMILES = CC(=O)Nc1ncc(CN2CCC[C@H](Cc3cc(C)nc(C)c3)C2)s1; value = 9.6%
SMILES = COc1cc(C(=O)O)ncc1C#Cc1ccccc1NS(=O)(=O)c1cccc2c(N(C)C)ccnc12; value = -2.53%
SMILES = CN1CCN(c2ccnc(NCCc3ccccc3)n2)CC1; value = 92.4%
SMILES = Cc1cc(Nc2nccc(C)n2)cc(-c2cnc([C@@]3(O)CC[C@H](C(=O)O)C(C)(C)C3)s2)c1; value = -15.2%
SMILES = O=c1nc(-c2ccccn2)sc2ccccc12; value = -11.3%
SMILES = CNC(=N)NCCC[C@H](NC(=O)[C@H](CC(C)C)NC(=O)NNC(=O)[C@H](Cc1ccccc1)NC(=O)[C@H](CO)NC(=O)[C@H](CC(N)=O)NC(=O)[C@@H](Cc1ccncc1)NC(=O)[C@H](N)Cc1ccc(O)cc1)C(=O)N[C@@H](Cc1ccccc1)C(N)=O; value = -2.33%
SMILES = CN(C)c1ncnc(-c2ccc3nc(Nc4cc(CN5CCN(C(=O)CC(F)(F)F)CC5)ccn4)[nH]c3c2)c1Cl; value = 13.4%

A few entries again (study 3):
target = KRAS G12C; test system = HEK293; conditions = 1 h; value = 870 nM
target = GTPase KRas (KRAS, Homo sapiens, UniProt P01116); test system = HEK293 cells; value = 760 nM
